Experimental data pooled from the literature.
A part holds a random share of what one study measured. Positions count from the first letter of the parent shown.

Sample 1 — method: competition protein-binding microarray; molecule type: double-stranded DNA, one strand shown; matrix: in vitro; tested at: 2 µM; together with: Pho4 competitor, 0.05 µM; reading: higher = stronger binding; constant ends, left off below: … GTCTTGATTCGCTTGACGCTGCTG
Target: Centromere-binding protein 1, full length, His-tagged (CBF1, Saccharomyces cerevisiae, UniProt P17106, residues 1-351)
UniProt P17106, sequence (whole entry, looked up): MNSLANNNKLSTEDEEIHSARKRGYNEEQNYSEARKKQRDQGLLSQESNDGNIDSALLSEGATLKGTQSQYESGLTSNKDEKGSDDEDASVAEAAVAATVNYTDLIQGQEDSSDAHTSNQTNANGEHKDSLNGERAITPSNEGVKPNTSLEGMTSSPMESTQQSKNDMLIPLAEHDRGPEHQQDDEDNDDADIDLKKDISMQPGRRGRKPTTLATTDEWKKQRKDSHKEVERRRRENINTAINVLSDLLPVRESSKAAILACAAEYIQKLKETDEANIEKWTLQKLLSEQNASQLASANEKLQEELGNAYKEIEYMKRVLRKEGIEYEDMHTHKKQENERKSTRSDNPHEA
Notes: whole 60-bp probe, lowest competitor level
`GTCCACACATTGTTCCACGTGTAGCTTACCCATGTA` has a fluorescence intensity of 498 a.u.
For `CGTCCTAGTGATTGGACGGTGGGTGCCATGAGGAAG`, the fluorescence intensity was 76.4 a.u.
`AGACAGTACGATAGCGACGTGCCAGTGTTATTGATG` has a fluorescence intensity of 78.8 a.u.
`CATACCCAACCTTGGCCTGTGGGTGAAGATATTTGT` gave a fluorescence intensity of 46.7 a.u.
`AAATTACTAAGTTGCGCGGTGGGTGACGCCGTATGA` gave a fluorescence intensity of 61.2 a.u.
With `CATACCCAACCTTGTCACAAGACTTAAGATATTTGT` the fluorescence intensity was 168 a.u.
The fluorescence intensity of `AGGAGTTTCTCCGGCCATGTGCGGCTGGTTCTACTT` is reported as 61.7 a.u.
`TTCGACAGCGCTAACGTTGTGACGGTAAGTGCTTTC` gave a fluorescence intensity of 62.4 a.u.
For `TAGTGGATTCTCGGAGGCGTGACTCGAGCCAGCCCA`, the fluorescence intensity was 201 a.u.
`CGGGGTTAAGTTTGGTAAGTGGGTGGCTTGCAGCAG` has a fluorescence intensity of 70.7 a.u.
For `GGTGTTTGGTAGAGTCAGGTGATTTACTGATTCTTC`, the fluorescence intensity was 1380 a.u.
`GTAGAGGTTAACGGTTCCGTGATGGAACCCATTTCT` gave a fluorescence intensity of 68.2 a.u.
For `AAAGCGGTAATTTGTCACGTCACTTCACATATCTAT`, the fluorescence intensity was 123 a.u.
For `ACTAGAAGAAATCCGCACGTGTAACCAAAAATAGAG`, the fluorescence intensity was 1580 a.u.

Sample 2 — target: CCNA2, cyclin fold, Cln2 fusion (human); method: yeast growth competition, sequencing; matrix: yeast; notes: strong parent motif; relative to: not given; reading: higher = stronger binding
Starting sequence: RB1 docking peptide (human); PKPLKKLRFDIEG
`G13L` — result for “normalised enrichment score”: 0.646.
For `G13V`, “normalised enrichment score” read 1.04.
`L4F` — result for “normalised enrichment score”: 2.1.
`K6S` — result for “normalised enrichment score”: 1.26.
Under “normalised enrichment score”, `F9S` is recorded as 0.187.
`L7N` — result for “normalised enrichment score”: 1.07.
`F9M` — result for “normalised enrichment score”: 1.11.
`K5G` — result for “normalised enrichment score”: -0.22.
`P3T` — result for “normalised enrichment score”: -0.0929.
For `P1N`, “normalised enrichment score” read 1.19.
`L4R`: “normalised enrichment score” 4.56.
`R8Y` — result for “normalised enrichment score”: 1.55.
`L4Q`: “normalised enrichment score” 1.42.
`P3S` — result for “normalised enrichment score”: 1.91.
`K6Y`: “normalised enrichment score” -0.126.
Under “normalised enrichment score”, `L7W` is recorded as 1.33.
`D10K`: “normalised enrichment score” 1.62.
For `L4A`, “normalised enrichment score” read 2.52.
For `R8M`, “normalised enrichment score” read 1.36.
Under “normalised enrichment score”, `I11C` is recorded as 0.981.
`K2Y` — result for “normalised enrichment score”: 1.03.
Under “normalised enrichment score”, `L7M` is recorded as 0.801.
`P3E`: “normalised enrichment score” 1.22.
For `K6C`, “normalised enrichment score” read 2.17.

Sample 3 — method: protein binding microarray; molecule type: double-stranded DNA, one strand shown; matrix: in vitro; tested at: not given; relative to: not given; reading: higher = stronger binding
Target: Histone acetyltransferase KAT6A, winged helix 1, GST fusion (KAT6A, Homo sapiens, UniProt Q92794, residues 1-85)
Notes: 8-mer, flanks averaged, mean of 2 arrays, mostly near background
Residues (chain): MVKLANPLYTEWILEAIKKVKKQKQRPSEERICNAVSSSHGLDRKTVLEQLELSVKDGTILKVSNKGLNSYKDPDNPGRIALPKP
For `CGCCATTA`, the E-score was 0.161.
For `AGTCATCA`, the E-score was -0.0496.
With `AATGTCCT` the E-score was -0.0764.
For `GGTGAGGA`, the E-score was -0.0883.
With `CGCGATAG` the E-score was 0.24.
For `ATCTGGAC`, the E-score was -0.183.
`CCGATAGG` gave an E-score of 0.114.
`ACCACTTG` has an E-score of -0.192.
`CACTAACG` has an E-score of 0.142.
`ACCGCCAT` has an E-score of 0.0355.
The E-score of `GCCGACGC` is reported as 0.448.
The E-score of `GTTTACGA` is reported as -0.201.
With `ACTTGCGC` the E-score was 0.33.
`GACTAACC` has an E-score of -0.16.
For `ACTTGCTC`, the E-score was -0.197.
For `GCTCCAAA`, the E-score was -0.17.
`GCCTCCGA` gave an E-score of 0.0195.
For `AGGTCTAT`, the E-score was -0.146.

Sample 4 — method: RNA Bind-n-Seq; molecule type: RNA; matrix: in vitro; tested at: 1 µM; notes: whole 134-nt RNA, ends assumed; together with: 150 mM KCl; relative to: input library; reading: higher = stronger binding
Target: Ras GTPase-activating protein-binding protein 1, RRM domain (G3BP1, Homo sapiens, UniProt Q13283)
UniProt Q13283, sequence (whole entry, looked up): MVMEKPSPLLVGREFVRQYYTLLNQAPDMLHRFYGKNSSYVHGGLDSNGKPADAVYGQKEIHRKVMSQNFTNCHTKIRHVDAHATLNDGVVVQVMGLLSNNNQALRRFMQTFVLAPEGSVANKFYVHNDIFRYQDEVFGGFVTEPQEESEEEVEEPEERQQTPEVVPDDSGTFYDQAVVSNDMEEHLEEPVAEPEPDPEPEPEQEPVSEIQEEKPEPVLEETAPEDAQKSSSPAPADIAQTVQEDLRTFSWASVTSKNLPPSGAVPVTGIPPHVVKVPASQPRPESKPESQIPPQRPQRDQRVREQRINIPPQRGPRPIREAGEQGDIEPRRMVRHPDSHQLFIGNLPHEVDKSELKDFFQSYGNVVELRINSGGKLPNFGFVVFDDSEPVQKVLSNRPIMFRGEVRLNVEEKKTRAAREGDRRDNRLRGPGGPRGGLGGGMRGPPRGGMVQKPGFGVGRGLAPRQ
Constant ends, left off below: GGGAGUUCUACAGUCCGACGAUC … UGGAAUUCUCGGGUGUCAAGG
For `CACAGACAACACGCACCCACACAGACACAGAGGGAAGGGGUUGGGACGGGGACAGGGUGCACAGCAGGGCGGGGUAGGACCCCAGCCCCU`, the log2 enrichment was -0.142.
`ACCAUGCAGGUGGGCAUCUUUGGGAAGUGGGGCAAGGGGGGGAUAGGGAGGGGGGUAACACUUUGGCAACAGGUGGUCCCAGGUCGUUUC` gave a log2 enrichment of 0.933.
`UAACUUUAGAGGAGGAUCUGAUGGAUAUGGCAGUGGACGUGGAUUUGGGGAUGGCUAUAAUGGGUAUGGGGGAGGACCUGGAGGUGGCAA` gave a log2 enrichment of -0.415.
The log2 enrichment of `GUCCUGUGCUACACAUCGUAUGUACCGAAUCGGGGAAAAAGGGGUUUUUGGGGAGGGGAAAGUAUUAUGUUACGCCGUUCGGAUCUGCAC` is reported as 1.19.
`CCUCAAGUCCUGUGCUACACAUCGUAUGUACCGAAUCGGCGGCGGGGCGGGGAAAGUAUUAUGUUACGCCGUUCGGAUCUGCACUUCCAG` gave a log2 enrichment of -0.211.
`GCAGGAAGUAAAAACAAAUGGAAAAACUUCGGAUAGUGGCAGGGGUGGGGGUUGCUAAGGAAAGGGUGGGAUGGGAGUGGGUAAAGAGUU` gave a log2 enrichment of 1.21.
The log2 enrichment of `AAGUCCUGUGCUACACAUCGUAUGUACCGAAUCGGGAAAAAGGGAAAGGGAAAGGGAAAGUAUUAUGUUACGCCGUUCGGAUCUGCACUU` is reported as 0.403.
`CAAGUCCUGUGCUACACAUCGUAUGUACCGAAUCGGAAAAAGGUUUUUGGUUUGGAAAGUAUUAUGUUACGCCGUUCGGAUCUGCACUUC` gave a log2 enrichment of -0.333.
`UCCUGUGCUACACAUCGUAUGUACCGAAUCGGGGAAAGGGGAAAAAGGGGUUUUUGGGGAAAGUAUUAUGUUACGCCGUUCGGAUCUGCA` has a log2 enrichment of 1.1.
The log2 enrichment of `AAGUCCUGUGCUACACAUCGUAUGUACCGAAUCGGGCCCCGGGGCCCCGGCCCCGGGAAAGUAUUAUGUUACGCCGUUCGGAUCUGCACU` is reported as -0.817.
For `CCUCAAGUCCUGUGCUACACAUCGUAUGUACCGAAUCGGGGUUGGUUGGUUGGAAAGUAUUAUGUUACGCCGUUCGGAUCUGCACUUCCA`, the log2 enrichment was -0.239.
`CUGUGCUACACAUCGUAUGUACCGAAUCGGGAAAAAAAGGGAAAAAAAGGGUUUUUUUGGGAAAGUAUUAUGUUACGCCGUUCGGAUCUG` gave a log2 enrichment of -0.0454.
For `CAAGUCCUGUGCUACACAUCGUAUGUACCGAAUCGGGAAAAAAAGGGUGGGUGGGAAAGUAUUAUGUUACGCCGUUCGGAUCUGCACUUC`, the log2 enrichment was 0.903.
`UGCUGCGGAAGGGCUCUGGCACUCUGUGUGAGGCCUUGCUGAUGGUGCAGGCCUUCCACGCCAACAUCAUCUUCCCCAACAAGCAAGAGC` gave a log2 enrichment of -0.42.

Sample 5 — method: RNA Bind-n-Seq; molecule type: RNA; matrix: in vitro; tested at: 365 nM; relative to: no-protein control; reading: higher = stronger binding
Target: RNA binding protein fox-1 homolog 2, RRM domain, GST-SBP tag (RBFOX2, Homo sapiens, UniProt O43251-10, residues 100-194)
Notes: natural RNA segment, single round, ends assumed
Constant ends, left off below: GGGAGUUCUACAGUCCGACGAUC … UGGAAUUCUCGGGUGCCAA
Construct (chain): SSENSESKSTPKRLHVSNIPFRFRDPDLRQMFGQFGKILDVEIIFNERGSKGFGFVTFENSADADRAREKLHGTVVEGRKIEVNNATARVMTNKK
`UUUCUCAGGUGUGAAUCAACUUCUUGGGCCUUGGCUCUGAGUUGGAAAAGGUUUUAGAAAAAGUGAAGAGCUGGAAUGUGGGGGAAAAUAAAAAGCUUUUUUGCCCAGUG`: “RBNS enrichment (R)” 0.773.
`AACCCCAUACUUCACCUAAUGGUAGGGGCUUGCUUGUUUUGCACAGGAUUAAUUAACAAGUUAAUUUUAAGGUGGCCACUGUACACUGCUCUAAAGUCAUAUCCCCUCCC`: “RBNS enrichment (R)” 0.444.
Under “RBNS enrichment (R)”, `GGCACAUUCAUUCACCCCAACACUUCUAUCUAAAGGCCAAGGUUCUAGGGCUGCUAUGGUCACUAACACACUGAUUCUCCUUAAAGUAAUUCUCGAAGUGUGGAACAAAG` is recorded as 0.452.
`GUCUCGGCCAGUGCCGUGGCCUGCUGGGAAGGGUCAGAGUCCUCACUGUCCCCCGUCUGUCCAGCAAUAGUCUGUCCAGAGACAAGCUUCUGUAGCGGCAGGGCUUCCGC`: “RBNS enrichment (R)” 0.245.
`GAGAGCCUGGGUUAAUCAGUUCUGCAGCCCCUACGUGACACUGUGCUAGUUCUCCUUCUUCUGUCUCCUCCUUACCCUGGCCCUGCACCCCUGUACUUAAGAGGGAGAGG`: “RBNS enrichment (R)” 1.17.
`UCUUUUCCAGAGUGUGGAUUUGAACUACUUCCCCCUGCAAAGGGCCGCGUGCACCCUGCCGAGCUGCGUAUAUUCUGUACUGUGUACAAUAAAGAAGAUUGCUUUCCUUA`: “RBNS enrichment (R)” 0.189.
Under “RBNS enrichment (R)”, `UCCUAGGAAAAUUUAAAGAUGACAGGCAGGGGAGAAGAUGCAUAUCAAAAGCUUGGCUUUAAAGUCUAAGGGAGUUUUAGAUCAAAAACUAGCUAUCACUUCCUGAGUGU` is recorded as 1.22.
`CACGUGCGCCUUCAUAGCCCAGCCAAGGGCAUGCAGGCAGGGUGUGCUGCCUGAGAUGGCACCUCCCUUUCAGCCAUUCUUCAAGAAUGGGCCACACACAGCUAGAAGUC` — result for “RBNS enrichment (R)”: 0.272.
`CCCUACUUUUCACCCCGCUGCCCCUCGGGAGGACUGCAGCUCGCUCCUGUUGGGAUCGCAAAGCUCGGGUACCUGCCCCGGCUUUGCUCCACACAGUCACGGGGUCCAUU`: “RBNS enrichment (R)” 0.292.
For `ACAAGUAUCAGCAAAAGGAUUUGUUUUCACUCUGGGAGGAGAGGGUGGAGAAAGCACUUGCUUUCAUCCUCUGGCAUCGGAAACUCCCCUAUGCACUUGAAGAUGGUUUA`, “RBNS enrichment (R)” read 0.712.
`AGAAUAUUGUUCGAAGAAUGUCUGUGAAUGCAGACAUGGGUCCUGCUUAGUGCCAUAGGUAGACUGAGUCUUCUGUAAGUCAUCAUUACAUAGUAAUUUUGGUUCUGAAU`: “RBNS enrichment (R)” 0.249.
`AAUUCUAAUACCUAUAUUUUCAAGUUAUGUCAAUUAAAUCAUUAUCAGGUUAUUUCCUAAUGUAAGAAUAGCUAAAAUGUUGCAGAGAAAUAAGUGACCCAACAAAAUUU` — result for “RBNS enrichment (R)”: 0.626.

Excerpt of the above (sample 3):
`ACCACTTG` has an E-score of -0.192.
For `ATCTGGAC`, the E-score was -0.183.
`GACTAACC` has an E-score of -0.16.
`CACTAACG` has an E-score of 0.142.
For `AGTCATCA`, the E-score was -0.0496.
For `CGCCATTA`, the E-score was 0.161.
`ACCGCCAT` has an E-score of 0.0355.
The E-score of `GTTTACGA` is reported as -0.201.
`CCGATAGG` gave an E-score of 0.114.
